Published values of several laboratories.
Lines come from different studies, so protocols differ. Numbers after ± are the reported error.

CC12CC(c3ccc(C(=O)CO)cc3)C3=C4CCC(=O)C=C4CCC3C1CCC2(O)C(F)(F)C(F)(F)F (centres unmarked)
maximal oral bioavailability (rat liver microsomes; 100 % absorption assumed): 81%

CCCC[C@H](NC(=O)[C@H](CC(C)C)N(C)C(=O)CNC(=O)[C@@H](NC(=O)[C@H](Cc1ccccc1)NC(=O)[C@H](CCCCN)NC(=O)[C@@H](N)CC(=O)O)C(C)C)C(N)=O
time to below quantitation limit (rat, plasma; IV, 100 µg/kg): ≤ 6 min

CC(C)[C@H](NC(=O)CNC(=O)[C@H](CCC(N)=O)NC(=O)[C@H](C)N)C(=O)O
AUC(0-inf) (LC-MS/MS; human, plasma; intravenous, 10 mg/kg three times daily, day 1, first dose, 10 min infusion, geometric mean): 271 ng·h/mL

CCCC[C@@H]1NC(=O)[C@@H](NC(=O)[C@H](CCC(=O)O)NC(=O)CNC(=O)CN2CCN(CC(=O)O)CCN(CC(=O)O)CCN(CC(=O)O)CC2)CCCCNC(=O)C[C@@H](C(N)=O)NC(=O)[C@H](C(C)C)NC(=O)[C@@H]2CCCN2C(=O)[C@H](CCCNC(=N)N)NC(=O)CNC(=O)[C@H](Cc2c[nH]c3ccccc23)NC(=O)[C@H](CCCNC(=N)N)NC(=O)[C@@H](Cc2ccccc2)NC(=O)[C@H](Cc2c[nH]cn2)NC(=O)[C@H](CCC(=O)O)NC1=O [gallium-67 labelled]
urine excretion (C57 mice, B16/F1 flank melanoma; intravenous, 0.037 MBq, 0.5 h): 77.33 ± 0.74%

CC/C=C\C/C=C\C/C=C\C/C=C\C/C=C\CCCCOC(CC)C(=O)O (centres unmarked)
tissue concentration (radioactivity, 14C-labelled; Wistar rat, male, whole blood; oral, 100 mg/kg, 1 h): 24.6 µg equivalents/g tissue

CC(C)[C@H](NC(=O)[C@@H]1CCCN1C(=O)[C@H](CCCNC(=N)N)NC(=O)[C@H](CS)NC(=O)[C@H](Cc1c[nH]c2ccccc12)NC(=O)[C@H](CCCNC(=N)N)NC(=O)[C@@H](Cc1ccccc1)NC(=O)[C@H](Cc1c[nH]cn1)NC(=O)[C@H](CCC(=O)O)NC(=O)[C@H](CS)NC(=O)[C@H](CS)NC(=O)[C@@H]1CC(=O)N[C@@H](CCCNC(=N)N)C(=O)NCC(=O)N[C@@H](CC(=O)O)C(=O)N[C@H](Cc2ccc(O)cc2)C(=O)N1)C(N)=O [technetium-99m labelled]
excretion (C57 mice B16/F1 melanoma female, urine; iv, 0.037 MBq, 24 h): 90.2 ± 3.25%

COC(=O)c1ccc(-c2cn(Cc3cc(Cl)ccc3O[11CH3])nn2)cc1
radioactivity (C57BL/6 mouse, blood; dose not given, 60 min): 2.07 %ID/cc

CCCC[C@H](NC(=O)CNC(=O)CNC(=O)CN1CCN(CC(=O)O)CCN(CC(=O)O)CCN(CC(=O)O)CC1)C(=O)N[C@H]1CC(=O)NCCCC[C@@H](C(N)=O)NC(=O)[C@H](Cc2c[nH]c3ccccc23)NC(=O)[C@H](CCCNC(=N)N)NC(=O)[C@@H](Cc2ccccc2)NC(=O)[C@H](Cc2c[nH]cn2)NC1=O [copper-64 labelled]
urinary excretion (C57 mouse, B16/F1 melanoma, urine; dose not given, 2 h): 63 % injected dose

CNC(=O)N[C@]1(C)CCC[C@@]2(C)C3CC[C@@]4(C)C[C@]3(CCC21)CC4=O (single isomer, unassigned)
relative error (rat plasma; 400 ng/mL, 101 d, -80 °C, long-term storage stability; reference: nominal concentration): 0.6%

CC(C)(c1cc(Br)c(O)c(Br)c1)c1cc(Br)c(O)c(Br)c1
distribution into milk fat (whole cow milk; mean of all doses; reference: total added): 46%

CC[C@H](C)[C@H](NC(=O)[C@H](CC(C)C)NC(=O)[C@H](Cc1c[nH]c2ccccc12)NC(=O)[C@H](C)NC(=O)[C@@H](NC(=O)[C@H](Cc1ccccc1)NC(=O)[C@H](CC(=O)O)NC(=O)[C@H](CCCNC(=N)N)NC(=O)[C@H](C)NC(=O)[C@H](C)NC(=O)[C@H](CC(C)C)NC(=O)[C@H](C)NC(=O)[C@H](CC(=O)O)NC(=O)[C@H](CC(C)C)NC(=O)[C@@H](NC(=O)[C@@H](NC(=O)[C@H](C)NC(=O)[C@H](CC(C)C)NC(=O)[C@H](CCC(=O)O)NC(=O)[C@H](CO)NC(=O)[C@H](CO)NC(=O)[C@H](Cc1ccccc1)NC(=O)[C@@H](NC(=O)CNC(=O)[C@H](CCC(=O)O)NC(=O)CNC(=O)[C@@H](N)Cc1c[nH]cn1)[C@@H](C)O)[C@@H](C)O)[C@@H](C)CC)[C@@H](C)CC)C(=O)N[C@@H](C)C(=O)N[C@H](C(=O)N[C@@H](CCCCN)C(=O)N[C@H](C(=O)N[C@H](C(=O)N[C@@H](CC(=O)O)C(=O)N[C@@H](CCCCN)C(=O)N[C@@H](CCCCN)C(=O)O)[C@@H](C)O)[C@@H](C)CC)[C@@H](C)O
AUCtau (immunoaffinity LC-MS/MS; healthy human subjects, plasma; subcutaneous, 5 mg once weekly, day 36 after 6 doses, steady state, geometric mean): 7.65 nM·h

Cc1ncc2c(n1)CN(C(=O)Nc1nc(-c3cccs3)ccc1N)C2
AUC (male Sprague-Dawley rats; oral, 30 mg/kg daily, day 14): 8240 ± 1940 ng·h/mL

[O-]c1cccc(-c2cccc([O-])n2)n1.[Ru+2].c1ccc(-c2ccccn2)nc1.c1ccc(-c2ccccn2)nc1
logP of basic form (shake flask; octanol/buffer): 1.6

CC[C@H](C)[C@H](NC(=O)[C@@H]1CCCN1C(=O)CNC(=O)[C@H](Cc1ccccc1)NC(=O)[C@H](CC(N)=O)NC(=O)[C@H](CC(N)=O)NC(=O)[C@H](CO)NC(=O)[C@H](CO)NC(=O)[C@H](Cc1c[nH]cn1)NC(=O)[C@@H](NC(=O)[C@H](CC(C)C)NC(=O)[C@H](Cc1ccccc1)NC(=O)[C@H](CC(N)=O)NC(=O)[C@H](C)NC(=O)[C@H](CC(C)C)NC(=O)[C@H](CCCNC(=N)N)NC(=O)[C@H](CCC(N)=O)NC(=O)[C@@H](NC(=O)[C@H](C)NC(=O)[C@@H]1CSSC[C@H](NC(=O)[C@@H](N)CCCCN)C(=O)N[C@@H](CC(N)=O)C(=O)N[C@@H]([C@@H](C)O)C(=O)N[C@@H](C)C(=O)N[C@@H]([C@@H](C)O)C(=O)N1)[C@@H](C)O)C(C)C)C(=O)N[C@@H](CC(C)C)C(=O)N[C@@H](CO)C(=O)N[C@@H](CO)C(=O)N[C@H](C(=O)N[C@@H](CC(N)=O)C(=O)N[C@H](C(=O)NCC(=O)N[C@@H](CO)C(=O)N[C@@H](CC(N)=O)C(=O)N[C@H](C(=O)N[C@@H](Cc1ccc(O)cc1)C(N)=O)[C@@H](C)O)C(C)C)[C@@H](C)O
collision cross section (ion mobility mass spectrometry; ammonium acetate; pH 7.5, monomer ion charge +2): 545.2 ± 4.4 Å²

CC(=O)N[C@H](CC(=O)O)C(=O)N[C@H](Cc1c[nH]c2ccccc12)C(=O)N[C@H](Cc1ccccc1)C(=O)N[C@H](CCCCN)C(=O)N[C@H](C)C(=O)N[C@H](Cc1ccccc1)C(=O)N[C@H](Cc1ccc(O)cc1)C(=O)N[C@H](CC(=O)O)C(=O)N[C@H](CCCCN)C(=O)N[C@@H](C(=O)N[C@H](C)C(=O)N[C@H](CCC(=O)O)C(=O)N[C@H](CCCCN)C(=O)N[C@H](Cc1ccccc1)C(=O)N[C@H](CCCCN)C(=O)N[C@H](CCC(=O)O)C(=O)N[C@H](C)C(=O)N[C@H](Cc1ccccc1)C(N)=O)C(C)C
AUC(0-t) (statin-treated high-risk CHD women, plasma; oral, 100 mg daily, day 1, 0 to 2 h, mean, undetectable set to 0): 6.42 ng·h/mL

Oc1ccc2ccccc2c1/N=N/c1ccccc1
measured concentration (rat whole blood QC samples; 16.0 µg/L, 4 h, room temperature, short-term stability): 15.9 µg/L

CC(O)c1cc(Cl)ccc1Cn1c(=S)[nH]c(=O)c2[nH]ccc21 (centres unmarked)
exposure ratio (Sprague-Dawley rat, female, plasma; oral, 125 mg/kg/day; reference: rat over human 10 mg): 2.5

CCCC[C@H](NC(=O)CNC(=O)CNC(=O)CN1CCN(CC(=O)O)CCN(CC(=O)O)CCN(CC(=O)O)CC1)C(=O)N[C@H]1CC(=O)NCCCC[C@@H](C(N)=O)NC(=O)[C@H](Cc2c[nH]c3ccccc23)NC(=O)[C@H](CCCNC(=N)N)NC(=O)[C@@H](Cc2ccccc2)NC(=O)[C@H](Cc2c[nH]cn2)NC1=O [gallium-67 labelled]
tumour to tissue uptake ratio (C57 mice, female, B16/F1 melanoma, tumour over muscle; intravenous, 0.037 MBq, 4 h): 78.3

N=C(N)NCCC[C@@H]1NC(=O)[C@H](Cc2c[nH]c3ccccc23)NC(=O)[C@@H](CC2CCCCC2)NC(=O)[C@@H]2CCCN2C(=O)[C@@H](NC(=O)CCc2ccccc2)CCCNC1=O
apparent central volume (V1/F) (C57BL/6J mice, brain; intraperitoneal, 1 mg/kg, two-compartment model): 0.08 µg/(ng/g)

CC(C)C[C@H](NC(=O)[C@H](CO)NC(=O)[C@H](CCCNC(=N)N)NC(=O)[C@H](CC(=O)O)NC(=O)[C@H](CCC(=O)O)NC(=O)[C@H](C)NC(=O)[C@@H]1CCCN1C(=O)[C@H](C)NC(=O)[C@H](CCC(=O)O)NC(=O)[C@@H]1CCCN1C(=O)[C@@H]1CCCN1)C(N)=O
body weight change (rhesus monkey; intranasal, dose not given, 10 weeks, dose escalation): ≤ 5%

C[C@H](N)[C@H]1O[C@@H](O[C@@H]2[C@@H](O)[C@H](N)C[C@H](N)[C@H]2O[C@H]2O[C@H]([C@@H](C)O)[C@@H](O)[C@H](O)[C@H]2N)[C@H](O)[C@@H]1O
IC50 (outer hair cell loss; CBA/J mice, cochlear explant; 72 h): 15 µM

Cn1c(=O)oc2ccc(-c3ccc(CC(C#N)NC(=O)C4CNCCCO4)c(F)c3)cc21 (centres unmarked)
subjects with TEAE (refers to: macule; human; 15 mg single dose, fasted): 0%

COCC1CN(C2CCN(c3cc(OC)c(Nc4ncc(Br)c(Nc5ccc6c(c5P(C)(C)=O)OCCO6)n4)cc3C)CC2)C1
treatment-related Anemia, all grades (human patients; oral, 10 to 240 mg once daily): 11.1%

C#CCOc1ccc(/C=C2\SC(=O)N(CC(=O)NCc3ccccc3)C2=O)cc1
Kirkwood-Buff integral G1,3 (inverse Kirkwood-Buff integrals; binary solvent mixture; 298.15 K, mole fraction x1 0.95): -258 cm³/mol

CC(=O)Nc1cc(C(=O)O)cc(O)c1O
radioactivity excreted in faeces (human, male, faeces; oral, 100 mg; reference: dose): 9.29%

CCOc1ccc2c(c1)C(C)CC(C)(C)N2 (centres unmarked)
tissue residue (LC-MS/MS; laying hens, liver; oral in feed, 50 mg/kg feed ethoxyquin, 56 days, after glucuronidase treatment): 0.8 ± 1 ng/g

COc1cc2c(cc1OC)CN(CCCCn1ccc3cc(OCC[18F])ccc31)C2
muscle uptake (male ICR mice; intravenous, 280 kBq, 30 min post-injection): 2.48 ± 0.18 %ID/g

COc1ccc(/C=C/c2ccc(-c3ccc(C)cn3)nc2)cc1
fluorescence quantum yield (acetonitrile; zinc-free ligand, with: quinine bisulfate reference): 0.28

CC(C)(O)c1ncc([S@](N)(=O)=NC(=O)Nc2c3c(cc4c2CCC4)CCC3)s1
Cmax (human, plasma; oral, 30 mg, single dose, fasted, healthy volunteers): 1750 ng/mL

NC[C@@H](C(=O)Nc1ccc(-c2cn[nH]c2)cc1)c1ccccc1
cornea score (OECD 405 eye irritation; New Zealand White rabbit, eye; topical, 0.1%, 48 h (day 3), scale 0 to 4; direction not given): 0

NC12CNCCNCC(NCc3ccc(CNC(=O)CCCC(=O)NCc4ccc(-c5nncnn5)cc4)cc3)(CNCCNC1)CNCCNC2.[64Cu+2]
mean absorbed dose (OLINDA dosimetry; liver; 24 h pretargeting interval, with: huA33-TCO pretargeting): 0.0301 rad/mCi

COc1ccc(COC[C@](O)(CNCc2ccccc2)[C@@H]2CC[C@@H](C)C[C@H]2OCc2ccc(OC)cc2)cc1
permeability (PAMPA-GI; phosphatidylcholine-cholesterol membrane; 500 µM, 4 h, pH 6.5, 37 °C, 5% DMSO): 34 ± 4 ×10⁻⁶ cm/s

Some of these lines once more:
C#CCOc1ccc(/C=C2\SC(=O)N(CC(=O)NCc3ccccc3)C2=O)cc1
Kirkwood-Buff integral G1,3 (inverse Kirkwood-Buff integrals; binary solvent mixture; 298.15 K, mole fraction x1 0.95): -258 cm³/mol

CC(=O)Nc1cc(C(=O)O)cc(O)c1O
radioactivity excreted in faeces (human, male, faeces; oral, 100 mg; reference: dose): 9.29%

CCOc1ccc2c(c1)C(C)CC(C)(C)N2 (centres unmarked)
tissue residue (LC-MS/MS; laying hens, liver; oral in feed, 50 mg/kg feed ethoxyquin, 56 days, after glucuronidase treatment): 0.8 ± 1 ng/g

COc1cc2c(cc1OC)CN(CCCCn1ccc3cc(OCC[18F])ccc31)C2
muscle uptake (male ICR mice; intravenous, 280 kBq, 30 min post-injection): 2.48 ± 0.18 %ID/g

COc1ccc(/C=C/c2ccc(-c3ccc(C)cn3)nc2)cc1
fluorescence quantum yield (acetonitrile; zinc-free ligand, with: quinine bisulfate reference): 0.28
